Experimental data from different studies.
Several values in a cell are separate wells, animals, samples, runs or records. ± marks the error that the study gave.
Sequence of UniProt P07947 (whole entry, looked up): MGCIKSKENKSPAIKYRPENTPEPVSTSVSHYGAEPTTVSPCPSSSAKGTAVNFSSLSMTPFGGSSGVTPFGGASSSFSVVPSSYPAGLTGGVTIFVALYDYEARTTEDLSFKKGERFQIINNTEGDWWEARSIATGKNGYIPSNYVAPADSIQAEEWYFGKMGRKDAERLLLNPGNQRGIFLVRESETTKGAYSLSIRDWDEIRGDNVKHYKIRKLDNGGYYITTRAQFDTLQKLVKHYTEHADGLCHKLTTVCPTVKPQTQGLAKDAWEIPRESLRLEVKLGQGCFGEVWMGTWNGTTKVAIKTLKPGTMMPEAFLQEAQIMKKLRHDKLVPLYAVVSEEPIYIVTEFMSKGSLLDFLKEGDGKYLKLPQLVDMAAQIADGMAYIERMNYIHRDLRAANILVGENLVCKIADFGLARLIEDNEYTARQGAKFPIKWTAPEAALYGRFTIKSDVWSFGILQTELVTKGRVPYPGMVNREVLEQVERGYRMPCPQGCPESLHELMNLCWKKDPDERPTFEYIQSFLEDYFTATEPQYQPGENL
Sequence of UniProt P41586 (whole entry, unmodified, looked up): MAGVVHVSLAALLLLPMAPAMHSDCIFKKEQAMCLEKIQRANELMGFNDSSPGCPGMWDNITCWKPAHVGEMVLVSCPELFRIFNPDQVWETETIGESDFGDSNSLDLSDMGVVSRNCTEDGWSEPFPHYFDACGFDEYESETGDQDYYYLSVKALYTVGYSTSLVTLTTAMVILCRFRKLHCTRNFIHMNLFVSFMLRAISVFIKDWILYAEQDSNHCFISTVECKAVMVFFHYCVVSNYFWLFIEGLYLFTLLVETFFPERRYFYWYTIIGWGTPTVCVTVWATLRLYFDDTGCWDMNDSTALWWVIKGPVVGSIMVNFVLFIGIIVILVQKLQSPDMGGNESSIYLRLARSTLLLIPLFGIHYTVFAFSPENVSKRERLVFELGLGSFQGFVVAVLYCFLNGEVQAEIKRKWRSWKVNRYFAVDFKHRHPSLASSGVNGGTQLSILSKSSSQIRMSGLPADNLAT
Sequence of UniProt Q16539 (whole entry, looked up): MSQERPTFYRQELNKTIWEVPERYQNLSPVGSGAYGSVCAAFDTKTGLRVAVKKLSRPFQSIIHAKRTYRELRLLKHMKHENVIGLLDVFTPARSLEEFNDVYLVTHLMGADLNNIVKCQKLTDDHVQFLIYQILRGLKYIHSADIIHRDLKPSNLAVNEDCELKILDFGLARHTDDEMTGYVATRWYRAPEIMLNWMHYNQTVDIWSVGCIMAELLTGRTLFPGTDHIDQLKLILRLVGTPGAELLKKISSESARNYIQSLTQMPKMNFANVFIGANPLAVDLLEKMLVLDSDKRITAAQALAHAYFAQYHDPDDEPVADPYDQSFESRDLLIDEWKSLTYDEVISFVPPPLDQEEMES
Sequence of UniProt O14733 (whole entry, looked up): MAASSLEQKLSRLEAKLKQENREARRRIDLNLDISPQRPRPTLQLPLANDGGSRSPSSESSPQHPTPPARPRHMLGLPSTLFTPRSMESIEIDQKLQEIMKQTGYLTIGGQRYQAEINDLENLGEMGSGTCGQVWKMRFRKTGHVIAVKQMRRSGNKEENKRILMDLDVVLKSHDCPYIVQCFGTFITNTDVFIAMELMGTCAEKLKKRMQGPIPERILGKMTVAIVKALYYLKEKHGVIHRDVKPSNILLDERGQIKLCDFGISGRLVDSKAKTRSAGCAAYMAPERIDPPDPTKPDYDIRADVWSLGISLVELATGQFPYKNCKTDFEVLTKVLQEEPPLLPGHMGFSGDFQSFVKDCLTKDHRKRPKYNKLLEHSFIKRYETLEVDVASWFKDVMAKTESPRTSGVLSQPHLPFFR
Sequence of UniProt O15530 (whole entry, looked up): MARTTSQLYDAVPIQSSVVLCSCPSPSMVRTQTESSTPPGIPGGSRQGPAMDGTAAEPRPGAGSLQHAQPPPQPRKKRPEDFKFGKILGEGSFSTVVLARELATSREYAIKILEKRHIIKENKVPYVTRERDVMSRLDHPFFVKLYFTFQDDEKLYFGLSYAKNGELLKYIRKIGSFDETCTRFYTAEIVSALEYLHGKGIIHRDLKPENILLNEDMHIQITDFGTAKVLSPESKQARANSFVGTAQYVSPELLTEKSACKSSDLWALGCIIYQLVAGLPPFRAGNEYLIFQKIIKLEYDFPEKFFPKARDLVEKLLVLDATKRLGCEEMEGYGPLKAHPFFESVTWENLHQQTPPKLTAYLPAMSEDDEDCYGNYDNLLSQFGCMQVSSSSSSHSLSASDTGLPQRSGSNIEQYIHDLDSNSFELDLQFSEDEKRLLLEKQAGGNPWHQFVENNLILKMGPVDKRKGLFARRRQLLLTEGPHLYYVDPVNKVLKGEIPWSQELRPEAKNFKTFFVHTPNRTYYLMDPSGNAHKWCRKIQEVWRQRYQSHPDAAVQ

CC(C)[C@@H]1NC(=O)[C@@H]2CCCN2C(=O)[C@@H](C(C)C)NC(=O)[C@H]2CCCN2C(=O)[C@H](C(C)C)NC(=O)[C@@H]2CCCN2C(=O)[C@@H](C(C)C)NC(=O)[C@H]2CCCN2C(=O)[C@H](C(C)C)NC(=O)[C@@H]2CCCN2C(=O)[C@@H](C(C)C)NC(=O)[C@H]2CCCN2C1=O  bi-ionic potential (sheep lipid bilayer; 10 µM, pH 7.4, 23 °C, added: 10 mM K+ vs Rb chloride): 26 mV
CN(C)[C@H]1C[C@@]23CC[C@@]4(O2)C(=CC[C@]2(C)[C@@H](c5ccc6ccncc6c5)CC[C@H]24)C=C3[C@@H](O)[C@@H]1O  inhibition (3-phosphoinositide-dependent protein kinase 1 (PDPK1, Homo sapiens, UniProt O15530); ATP probe labelling, inhibitor, KiNativ profiling; 1 µM): -5.5%
CN1C(=O)C(C2C3=C(CC(C)(C)CC3=O)Oc3ccc(Cl)cc32)C(=O)N(C)C1=O (stereo not drawn)  lipid content (3T3-L1 preadipocytes; adipogenesis, Oil Red O staining; IC20, 14 days, single replicate): 0.711 OD492
CC(C)CC(C(=O)N1CC2(CC1C#N)C(=O)Nc1ccccc12)N(C)C(=O)c1cc2c(F)cc(F)c(F)c2[nH]1 (stereo not drawn)  IC50 (trypsin (human); enzyme activity, inhibitor): > 100 µM
O=C1NC(=O)c2c1c1cc(F)c[n+]3c1c1c2c2cc(O)ccc2[n]1[Ru-4]312([N]=C=S)[S+]3CC[S+]1CC[S+]2CC3 (stereo not drawn)  remaining activity (Protein kinase C gamma type (PRKCG, Homo sapiens, UniProt P05129); enzyme activity; 100 nM, human enzyme, added: 10 µM ATP; baseline: untreated): 90%
CC(C)(C)C(=O)OCOP(=O)(OCOC(=O)C(C)(C)C)C1CCCN(O)C1=O (stereo not drawn)  log TGI (DU-145): > -4 log M
CC1(C)CC(=O)C2=C(C1)Oc1ccccc1C2C1C(=O)NC(=O)NC1=O (stereo not drawn)  lipid content (3T3-L1 preadipocytes; adipogenesis, Oil Red O staining; IC20, 14 days, single replicate): 0.799 OD492
O=C1NC2(CC2)COc2ncc(F)cc2[C@H]2COCCN2c2ccn3ncc1c3n2  organ-to-brain weight ratio (Sprague-Dawley rat, male, spleen; oral, 20 mg/kg/day, 4 weeks dosing, end of recovery): 56.9 ± 13.4%
Cc1cc(C(=O)Nc2nc3cccc(C)c3n2[C@H]2CCCCN(C(=O)/C=C/CN(C)C)C2)ccn1  EC50 fold shift (Trypanosoma brucei; cell growth, Alamar Blue; 2T1 overexpressing Tb927.11.12310; baseline: parental 2T1): 0.8 fold and 0.62 fold
CCN(CC)Cc1cc(Nc2c(C)cnc3cc(Cl)ccc23)ccc1O.Cl  inhibition (West Nile virus; viral replication, Rluc reporter replicon; Vero WNV replicon cells; 50 µM, 24 h): 97.9 ± 0.5%
COc1ccccc1-c1n[nH]c2nc(N[C@H]3CC[C@H](NS(=O)(=O)CC(C)C)CC3)ncc12  relative abundance (bead binding, competition bead pull-down, item: LINJ.34.3810; Leishmania donovani extract; 10 µM; baseline: vehicle): 2.59
Cl.Oc1ccc(Nc2ccnc3cc(Cl)ccc23)cc1  inhibition (West Nile virus; viral replication, Rluc reporter replicon; Vero WNV replicon cells; 50 µM, 24 h): 57.2 ± 5.1%
COc1ccccc1-c1n[nH]c2nc(NC3CCN(C(=O)Cc4ccc(F)cc4F)CC3)ncc12  relative abundance (bead binding, competition bead pull-down, item: LINJ.29.2420; Leishmania donovani axenic amastigote extract; 10 µM; baseline: vehicle): 0.97
O=C(O)C(Cl)Cl.OCCN(CCO)CCO  herbicidal inhibition (Eleusine indica; 15 mg/mL, 21 days, pre-emergence, greenhouse): 0%
CS(C)(=O)=Nc1ccc(-c2ccc(-c3nc4cc(O[C@@H]5CO[C@H]6[C@@H]5OC[C@H]6O)[nH]c4cc3F)cc2)cc1  inhibition (Dual specificity mitogen-activated protein kinase kinase 7 (MAP2K7, Homo sapiens, UniProt O14733); kinase activity; 10 µM): 8%
CSCC[C@H](NC(=O)[C@H](CCC(N)=O)NC(=O)[C@H](CCCCN)NC(=O)[C@H](CCCNC(=N)N)NC(=O)[C@H](Cc1ccc(O)cc1)NC(=O)[C@H](CCCNC(=N)N)NC(=O)[C@H](CO)NC(=O)[C@H](Cc1ccc(O)cc1)NC(=O)[C@H](CO)NC(=O)[C@H](CC(=O)O)NC(=O)[C@@H](NC(=O)[C@@H](N)Cc1ccccc1)[C@@H](C)O)C(=O)N[C@@H](C)C(=O)N[C@H](C(=O)N[C@@H](CCCCN)C(=O)N[C@@H](CCCCN)C(=O)N[C@@H](Cc1ccc(O)cc1)C(=O)N[C@@H](CC(C)C)C(=O)N[C@@H](C)C(=O)N[C@@H](C)C(=O)N[C@H](C(=O)N[C@@H](CC(C)C)C(=O)NCC(=O)N[C@@H](CCCCN)C(=O)N[C@@H](CCCNC(=N)N)C(=O)N[C@@H](Cc1ccc(O)cc1)C(=O)N[C@@H](CCCCN)C(=O)N[C@@H](CCC(N)=O)C(=O)N[C@@H](CCCCn1cc(C[C@H](NC(=O)CNC(=O)[C@H](CO)NC(=O)[C@H](CCCNC(=N)N)NC(=O)[C@H](CO)NC(=O)[C@H](CC(C)C)NC(=O)[C@H](CC(C)C)NC(=O)CNC(=O)[C@H](C)NC(=O)[C@H](CC(C)C)NC(=O)[C@H](CCCNC(=N)N)NC(=O)[C@H](Cc2c[nH]cn2)NC(=O)[C@@H](NC(=O)[C@@H](N)C(C)C)[C@@H](C)O)C(=O)N[C@H](C(=O)N[C@H](C(=O)N[C@@H](CCCCN)C(=O)N[C@@H](CC(N)=O)C(=O)N[C@@H](CC(N)=O)C(=O)N[C@@H](Cc2ccccc2)C(=O)N[C@H](C(=O)N2CCC[C@H]2C(=O)N[C@H](C(=O)N[C@@H](CC(N)=O)C(=O)N[C@H](C(=O)NCC(=O)N[C@@H](CO)C(=O)N[C@@H](CCCCN)C(=O)N[C@@H](C)C(=O)N[C@@H](Cc2ccccc2)C(N)=O)C(C)C)[C@@H](C)O)C(C)C)C(C)C)C(C)C)nn1)C(=O)N[C@H](C(=O)N[C@@H](CCCCN)C(=O)N[C@@H](CC(N)=O)C(=O)N[C@@H](CCCCN)C(N)=O)C(C)C)C(C)C)C(C)C  Kb (Pituitary adenylate cyclase-activating polypeptide type I receptor (ADCYAP1R1, Homo sapiens, UniProt P41586, del89-109); cAMP accumulation, antagonist; added: PACAP-27): 0.288 µM
CC[C@@H]1C(=O)N(C)c2cnc(Nc3ccc(C(=O)NCCCC[C@H](NC(=O)[C@@H](NC(=O)[C@H](CO)NC(=O)[C@H](Cc4cncn4CCCCCCCCc4ccccc4)NC(=O)[C@H](CC(C)C)NC(=O)[C@@H]4CCCN4C(C)=O)[C@@H](C)CP(=O)(O)O)C(N)=O)cc3OC)nc2N1C1CCCC1  efflux ratio (Caco-2; 10 µM, 2 h; baseline: B-A over A-B): 8.94
C[Si](C)(C)C[C@H](CN)CC(=O)O  inhibition (sodium channel site 2, rat; binding; 250 µM): -6%
CC[N+](C)(CC)Cc1cc(Nc2ccnc3cc(Cl)ccc23)ccc1O.[Cl-]  inhibition (Dengue virus type 2; viral replication, Rluc reporter replicon; BHK-21 DENV2 replicon cells; 50 µM, 24 h): 69.9 ± 3.4%
Nc1ncc(-c2cc(-c3cnn(CC(F)(F)F)c3)ncc2F)nc1C(=O)NC1CNCC(F)C1 (stereo not drawn)  remaining binding (ABL1(F317L)-phosphorylated; KINOMEscan competition binding; 1 µM; baseline: DMSO control): 100%
CC(C)[C@H]1NC(=O)C[C@H]2/C=C/CCSSC[C@@H](NC1=O)C(=O)N[C@H](Cc1cccc3ccccc13)C(=O)NCC(=O)O2  inhibition (Tyrosine-protein kinase Yes (YES1, Homo sapiens, UniProt P07947); enzyme activity, inhibitor; 10 µM): -8.6%
Cc1cc(Oc2nc(N3CC[C@@H](c4ccncc4)C3)ncc2F)[nH]n1  normalised growth (Mycobacterium tuberculosis; THP-1, H37Rv non-replicating; 30 µM, day 4 plus 1): 84.3% and 83.8%
O=C(O)c1ccc(-c2nc(-c3ccccc3Cl)c3sccn23)cc1  reticulocytes (C57BL/6 mice, 5-fluorouracil treated; dose not given, day 3; baseline: RBC): 1.49% and 1.35% and 1.46% and 1.28%
CCCCCCCCCCCC(=O)C(C)C(=O)N1CCC[C@H]1C(=O)NC(C)(C)C(=O)NC(C)(C)C(=O)NC(C)(C)C(=O)N[C@](C)(CC)C(=O)NCCC(=O)N[C@@H](C)C(=O)N[C@](C)(CC)C(=O)N[C@@H](C)C(=O)N[C@@H](CC(C)C)C(=O)N[C@](C)(CC)C(=O)NCCC(=O)N[C@@H](C)C(=O)N[C@](C)(CC)C(=O)NCCC(=O)N[C@@H](C)C(=O)NC(C)(C)C(=O)NC(C)(C)C(=O)NC(C)(C)C(=O)N[C@@H](C)C(=O)N[C@@H](CC(=O)O)C(=O)O (stereo partly drawn)  unbound compound (MS peak area) (chitin; pull-down, LC-MS; 1 h, pH 7.0, 30 °C, added: chitin 1 mg/mL; higher = less bound): 1610 a.u. and 1540 a.u.
CC[C@H](C)[C@@H]([C@@H](CC(=O)N1CCC[C@H]1[C@H](OC)[C@@H](C)C(=O)N[C@H](C)[C@@H](O)c1ccccc1)OC)N(C)C(=O)[C@@H](NC(=O)[C@H](C(C)C)N(C)C(=O)OCc1ccc(NC(=O)[C@H](CCCNC(N)=O)NC(=O)[C@@H](NC(=O)CCCCCN2C(=O)CC(SC[C@H](NC(=O)[C@H](CC(=O)O)NC(=O)[C@H](Cc3ccc(O)cc3)NC(=O)[C@H](Cc3c[nH]c4ccccc34)NC(=O)[C@@H](N)CCCNC(=N)N)C(=O)O)C2=O)C(C)C)cc1)C(C)C (stereo partly drawn)  concentration (C57BL/6 mouse, healthy, lung; intraperitoneal, 2.5 mg/kg, 6 h): not detected
N[C@H](C(=O)N1CCCC1)C1CCN(c2nccc3c(-c4ncc(Cl)cc4Cl)cccc23)CC1  inhibition (Mitogen-activated protein kinase 14 (MAPK14, Homo sapiens, UniProt Q16539); kinase activity, inhibitor; 10 µM, added: ATP 1 mM): 8.7%
CC1CCC2C(C)C(CCCOC(=O)C(Cc3ccc(N(CCCl)CCCl)cc3)NC(=O)OC(C)(C)C)OC3OC4(C)CCC1C32OO4 (stereo not drawn)  IC50 (Hep3B; cell growth or viability, CCK-8): 0.64 µM

Repeated from above:
CC(C)(C)C(=O)OCOP(=O)(OCOC(=O)C(C)(C)C)C1CCCN(O)C1=O (stereo not drawn)  log TGI (DU-145): > -4 log M
CC[N+](C)(CC)Cc1cc(Nc2ccnc3cc(Cl)ccc23)ccc1O.[Cl-]  inhibition (Dengue virus type 2; viral replication, Rluc reporter replicon; BHK-21 DENV2 replicon cells; 50 µM, 24 h): 69.9 ± 3.4%
CC1(C)CC(=O)C2=C(C1)Oc1ccccc1C2C1C(=O)NC(=O)NC1=O (stereo not drawn)  lipid content (3T3-L1 preadipocytes; adipogenesis, Oil Red O staining; IC20, 14 days, single replicate): 0.799 OD492
